Assay results of several laboratories.
Each numbered part is a random draw from the data of one study; scales do not carry over between parts.

Block 1 — cell line: HEK-293T; effect on: pseudovirus infection; organism: VSV pseudotyped with SARS-CoV-2 spike; concentration: 10 µM; time: 16 h; reference: vehicle-treated; quantity: GFP-positive cells
Structure (SMILES) = O=C1CC[C@@]2(O)[C@H]3Cc4ccc(O)c5c4[C@@]2(CCN3CC2CC2)[C@H]1O5; result = 76.4%
Structure (SMILES) = CN1CCc2nc(C(=O)N[C@@H]3C[C@@H](C(=O)N(C)C)CC[C@@H]3NC(=O)C(=O)Nc3ccc(Cl)cn3)sc2C1; result = 66.5%
Structure (SMILES) = NCCCNCCSP(=O)(O)O; result = 77.7%

Block 2 — effect on: enzyme activity; action: inhibitor; concentration: 20 µM; setting: hit confirmation; quantity: inhibition
Target: Replicase polyprotein 1ab, main protease (rep, Severe acute respiratory syndrome coronavirus 2, UniProt P0DTD1)
Structure (SMILES) = CN1C2=CC(=O)/C(=N\NC(N)=O)C=C2CC1S(=O)(=O)O (stereo not drawn); result = -3.9%
Structure (SMILES) = O=C(O)[C@H]1O[C@@H](Oc2cc3oc(-c4ccccc4)cc(=O)c3c(O)c2O)[C@H](O)[C@@H](O)[C@@H]1O; result = 54%
Structure (SMILES) = CO[C@@H]1[C@H](OC(=O)NC(=O)CCl)CC[C@]2(CO2)[C@H]1[C@@]1(C)O[C@@H]1CC=C(C)C; result = 54.1%

Block 3 — effect on: helicase activity; action: inhibitor; technique: high-content helicase; organism: SARS-CoV-2; concentration: 20 µM; quantity: inhibition
Target: Replicase polyprotein 1ab, nsp13 helicase (rep, Severe acute respiratory syndrome coronavirus 2, UniProt P0DTD1)
Structure (SMILES) = CCn1c(N)c(C(=O)NC)c(=O)c2ccc(C#C[C@@](C)(O)COC)nc21; result = 91.2%
Structure (SMILES) = Nc1nnc(Sc2ncc([N+](=O)[O-])s2)s1; result = 102%
Structure (SMILES) = CC(=O)[O][Pt]([NH2])([Cl])([Cl])([NH]C1CCCCC1)[O]C(C)=O; result = 100%
Structure (SMILES) = O=C1C(c2ccccn2)=[N+]([O-])c2ccccc21; result = 100%
Structure (SMILES) = O=C(/C=C/c1ccc2ccccc2n1)c1ccncc1; result = 100%
Structure (SMILES) = O=[N+]([O-])C=Cc1ccc2c(c1)OCO2; result = 85.7%
Structure (SMILES) = O=S(=O)(O)c1ccc(-c2c3nc(c(-c4ccc(S(=O)(=O)O)cc4)c4ccc([nH]4)c(-c4ccc(S(=O)(=O)O)cc4)c4nc(c(-c5ccc(S(=O)(=O)O)cc5)c5ccc2[nH]5)C=C4)C=C3)cc1; result = 88%
Structure (SMILES) = CCC(C)SSc1ncc[nH]1 (stereo not drawn); result = 101%
Structure (SMILES) = O=C(O)c1ccc(SSc2ccc(C(=O)O)cn2)nc1; result = 103%
Structure (SMILES) = CC1(C)C(/C=C/C=C/C=C/C=C2\N(CCCCS(=O)(=O)O)c3ccc4ccccc4c3C2(C)C)=[N+](CCCCS(=O)(=O)[O-])c2ccc3ccccc3c21; result = 102%

Block 4 — technique: RNA Bind-n-Seq; molecule type: RNA; medium: in vitro; concentration: 200 nM; setting: whole 134-nt RNA, ends assumed; with: 150 mM KCl; reference: input library; direction: higher = stronger binding; quantity: log2 enrichment
Target: Fragile X messenger ribonucleoprotein 1, C-terminal low-complexity region (Fmr1, Mus musculus, UniProt P35922)
All sequences stand within: GGGAGUUCUACAGUCCGACGAUC … UGGAAUUCUCGGGUGUCAAGG
Sequence = GCAGGAAGUAAAAACAAAUGGAAAUGCUUCGGAUAGUGGCAGGGGUGGGGGUUGCUAAGGAAAGGGUGGGAUGGGAGUGGGAAAAGAGUU; result = 0.00242
Sequence = AGUCCUGUGCUACACAUCGUAUGUACCGAAUCGGGAGGGAAAAAAAGGGAAAAAGGGAAAGUAUUAUGUUACGCCGUUCGGAUCUGCACU; result = 0.236
Sequence = CCUCAAGUCCUGUGCUACACAUCGUAUGUACCGAAUCGGAGGGAGGGGAGGGAAAGUAUUAUGUUACGCCGUUCGGAUCUGCACUUCCAG; result = 0.91
Sequence = CUGUGCUACACAUCGUAUGUACCGAAUCGGGAAAAAAAGGGGAAAAAAAGGAAAAAAAGGGAAAGUAUUAUGUUACGCCGUUCGGAUCUG; result = -0.959
Sequence = AGUCCUGUGCUACACAUCGUAUGUACCGAAUCGGCCCCCGGGCCCCCGGCCCCCGGGAAAGUAUUAUGUUACGCCGUUCGGAUCUGCACU; result = -0.55
Sequence = AGUCCUGUGCUACACAUCGUAUGUACCGAAUCGGGUUUGGGUUUUUUUGGGUUUGGGAAAGUAUUAUGUUACGCCGUUCGGAUCUGCACU; result = 0.616
Sequence = UCAAGUCCUGUGCUACACAUCGUAUGUACCGAAUCGGGCCCGGCCCGGGCCCGGAAAGUAUUAUGUUACGCCGUUCGGAUCUGCACUUCC; result = -0.659
Sequence = CCUCAAGUCCUGUGCUACACAUCGUAUGUACCGAAUCGGGGUGGGGUGGUGGAAAGUAUUAUGUUACGCCGUUCGGAUCUGCACUUCCAG; result = 0.545

Repeated from above (block 3):
Structure (SMILES) = CC(=O)[O][Pt]([NH2])([Cl])([Cl])([NH]C1CCCCC1)[O]C(C)=O; result = 100%
Structure (SMILES) = O=C1C(c2ccccn2)=[N+]([O-])c2ccccc21; result = 100%
Structure (SMILES) = O=C(/C=C/c1ccc2ccccc2n1)c1ccncc1; result = 100%
Structure (SMILES) = O=[N+]([O-])C=Cc1ccc2c(c1)OCO2; result = 85.7%
